Measured values of several laboratories.
A part holds a random share of what one study measured. Positions count from the first letter of the parent shown.

Block 1
Target: Histone acetyltransferase KAT6A, winged helix 1, GST fusion (KAT6A, Homo sapiens, UniProt Q92794, residues 1-85)
Method: protein binding microarray
Form: double-stranded DNA, one strand shown
Matrix: in vitro
Tested at: not given
Notes: 8-mer, flanks averaged, mean of 2 arrays, mostly near background
Baseline: not given
Direction: higher = stronger binding
Measurement: E-score
Target sequence (chain): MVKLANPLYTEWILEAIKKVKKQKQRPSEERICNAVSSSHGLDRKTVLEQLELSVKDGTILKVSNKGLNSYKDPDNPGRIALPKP
ACGTGAAT: -0.0295
AATAATCC: -0.0621
CAATTCTC: -0.151
ATCAAGCA: -0.221
ATGTGCAG: -0.17
AGGCTGGA: -0.188
GCATGCCC: 0.221
AGAAGGCT: -0.266

Block 2
Target: CCNE1, cyclin fold, Cln2 fusion (human)
Method: yeast growth competition, sequencing
Matrix: yeast
Notes: strong parent motif
Baseline: not given
Direction: higher = stronger binding
Measurement: normalised enrichment score
Parent: RBL1 docking peptide (human); GSAKRRLFGEDPP
GSAKMRLFGEDPP [R5M]: 0.464
GSQKRRLFGEDPP [A3Q]: 0.46
GSAKRKLFGEDPP [R6K]: 5.9
GSAKRRLFGEDPH [P13H]: 6.83
GSAKRILFGEDPP [R6I]: 4.93
TSAKRRLFGEDPP [G1T]: 6.98
GHAKRRLFGEDPP [S2H]: 6.65
GSAKRRLKGEDPP [F8K]: 0.824

Block 3
Target: Fragile X messenger ribonucleoprotein 1, C-terminal low-complexity region (Fmr1, Mus musculus, UniProt P35922)
Method: RNA Bind-n-Seq
Form: RNA
Matrix: in vitro
Tested at: 200 nM
Notes: whole 134-nt RNA, ends assumed
Added: 150 mM KCl
Baseline: input library
Direction: higher = stronger binding
Measurement: log2 enrichment
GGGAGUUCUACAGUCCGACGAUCGUCCUGUGCUACACAUCGUAUGUACCGAAUCAAACCCAAACCCCCCCAAACCCCCAAAAAAGUAUUAUGUUACGCCGUUCGGAUCUGCACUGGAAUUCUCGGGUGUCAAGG: -0.128
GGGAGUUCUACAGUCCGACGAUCAAAAUAAGCCUAAGAAAGAAUUAAUUAAAGUUCUGAUUCAGAGGGGAUAUGAUUCGGAUCCUGUGAAGGCCUGGAAAGAAGCCCAGCAAAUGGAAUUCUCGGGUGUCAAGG: -0.28
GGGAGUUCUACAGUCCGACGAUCUCCUGUGCUACACAUCGUAUGUACCGAAUCGGAAAAAAGGGAAAAAAGGGGAAAAAAGGGAAAGUAUUAUGUUACGCCGUUCGGAUCUGCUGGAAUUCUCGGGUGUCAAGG: -0.367
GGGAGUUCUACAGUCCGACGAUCCACACACAACACGCACCCACACAGACACAGAGGGAAGGGGUUGGGAUGGGGACAGGGUGCACAGCAGGGCGGGGUAGGACCCCAGCCCCUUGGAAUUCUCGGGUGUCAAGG: 1.32
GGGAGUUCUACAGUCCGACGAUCGUCCUGUGCUACACAUCGUAUGUACCGAAUCAAAUUUUUAAAUUUUUUUAAACCCAAAAAAGUAUUAUGUUACGCCGUUCGGAUCUGCACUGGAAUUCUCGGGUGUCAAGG: 0.0482
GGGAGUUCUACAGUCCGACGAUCCUGUGCUACACAUCGUAUGUACCGAAUCGGGGAAAAAAAGGGGAAAGGGGUUUUUUUGGGGAAAGUAUUAUGUUACGCCGUUCGGAUCUGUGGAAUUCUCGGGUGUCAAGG: -0.294

Other studies, line by line
PhoQ, residues 284 288 289 292 302 303 TTSMTC  fold induction (PhoP, residues 12 14 15 18 19 HLGGL (Escherichia coli, UniProt P23836); Sort-seq, measured: YFP reporter; E. coli; PhoQ-PhoP variant library, added: 10 µM Mg2+; baseline: high Mg2+ state, higher = stronger signaling): 2.85

A few entries again (other studies, line by line):
PhoQ, residues 284 288 289 292 302 303 TTSMTC  fold induction (PhoP, residues 12 14 15 18 19 HLGGL (Escherichia coli, UniProt P23836); Sort-seq, measured: YFP reporter; E. coli; PhoQ-PhoP variant library, added: 10 µM Mg2+; baseline: high Mg2+ state, higher = stronger signaling): 2.85
